# Experimental data from different studies.
# Parts stem from different laboratories: compare values within a part only.

# Set 1
# Target: Histone acetyltransferase KAT6A, winged helix 1, GST fusion (KAT6A, Homo sapiens, UniProt Q92794, residues 1-85)
# Method: protein binding microarray
# Molecule type: double-stranded DNA, one strand shown
# Medium: in vitro
# Tested at: not given
# Setting: 8-mer, flanks averaged, mean of 2 arrays, mostly near background
# Reference: not given
# Reading: higher = stronger binding
# Residues (chain): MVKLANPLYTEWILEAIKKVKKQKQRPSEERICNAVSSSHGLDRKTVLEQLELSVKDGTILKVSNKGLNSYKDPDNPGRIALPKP
Oligonucleotide,E-score
CACATGAA,-0.116
CGTCTGGC,0.0675
ATGTTACA,-0.0247
CGAGGCAG,-0.0155
CGGCCGGA,0.328
AGCCTTCA,-0.152
CAATGAAC,-0.192
CCGCAACA,0.185
AGCGAGTA,0.0601
AACGTAGC,-0.0367
AAGCTTGG,-0.092
AGGCTAAT,-0.21
GCATACGA,-0.0952
CGCCATGC,0.188
AGGCCAAC,-0.2
AATTAAAA,0.00594
AGCCCCAA,-0.282
ATCGACGC,0.107
CCTTGATA,-0.213
ACGATCTC,-0.109
CGGTACAG,0.196
ACCTTTAT,-0.233
AGCACTCG,-0.00787
AAAAGCAG,-0.163
CGTTCCCC,0.163

# Set 2
# Target: RNA binding protein fox-1 homolog 2, RRM domain, GST-SBP tag (RBFOX2, Homo sapiens, UniProt O43251-10, residues 100-194)
# Method: RNA Bind-n-Seq
# Molecule type: RNA
# Medium: in vitro
# Tested at: 365 nM
# Setting: natural RNA segment, single round, ends assumed
# Reference: no-protein control
# Reading: higher = stronger binding
# Shared flanks, not repeated: GGGAGUUCUACAGUCCGACGAUC … UGGAAUUCUCGGGUGCCAA
# Construct (chain): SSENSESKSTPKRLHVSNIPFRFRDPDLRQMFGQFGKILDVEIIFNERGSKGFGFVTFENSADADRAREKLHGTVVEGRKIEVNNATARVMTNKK
Oligonucleotide,RBNS enrichment (R)
ACAUAGCUGGUUAACCUUGAAGUGACUGUUGUACCAUGGUUGUGCACAUGCUUCAGAAUCCUAUGGAAGAGAAUAUUCCUACUUGCAGUACAUCAAAGGAAUGGAUGGUG,1.03
GGAAGUCCAGAAAGGAAAAUAAUUUAAAUUAAUGCUGGUGAUCUUAACAAUAUUUUGUAAAAUGAUGCUUCCCCCUUCUCCAUGGUCUAGUCAAUUUUGUACAAUUAGGU,0.558
AUUUGUUAUGGAGCUGUGCUAAUUUCACUAUCAAAAUAUUUGUUGGAUGAAUAAAUGCUACGAAACGUUACUUAUUUUUUAAAAGGUUAUUAGACUUAUUUUAUUUUAUG,0.546
UUGUGACCAAAUGGGCCUCAAAGAUUCAGAUUGAAACAAACAAAAAGCUUUUGAUGGAAAAUAUGUGGGUGGAUAGUAUAUUUCUAUGGGUGGGUCUAAUUUGGUAACGG,1.19
CCAGGGUAGAGCAAAGGAGACAAAGCAGGAGUGGAAGGUGAGGCGUUCUCCUGCUUGUACUAAGCCAGGAGGCUUUAAGCUCCAGCUUUAAGGGUUGUGAGCCCCUUGGG,0.97
AAAACAUUUGAAAGCAUGUUGUGCAUGUGUGAGAGAGUGGCGUGGCUGGUCUCAGGCUGACACUCGAAGGGUAGUAGAAAUAUCCCUUCUGGCCUAUUGUCUGCUUCGCU,24.2
CACCAUGUGGCAGAGCUCCAGCCUCGAGUUGUCCCCCAGACUCAGGAGUCCCAGCCGGAUGGCCACCUCUGCAACCAUCAUCCUGUCUUCAGCUCAGCGGCAGCCCCGAA,0.807
AAGAGAAGAGACACAUUGUUGGAAGAAGCAGCCCAUGACAGCUCCCCUUCCUGGGACUCGCCCUCAUCCUCUUCCUGCUCCCCUUCCUGGGGUGCAGCCUAAAAGGACCU,0.26
GCCUUUUCUGCCAGGCAGUCACCAUGCUUCCCUACCCCAGCCUGUUUCUUUUGGCUUGGUUUGGACCACAGUCCUCUGCUACCCAGGGUUUUAGAGCCCCUGCUCUAGGA,0.851
UGAAGCCUGCUAAAUGAAGAGACUUAAGAAAGCUUAAGGUACGCUUGCUUGUCUUUAAAUCUUCAAUAUGAAGGACUAUUAAUUCCAAGAUUAAAAGUUCAUAUAUAGGC,0.748
UGUUCUGGGGUGAGCGGGGAGCGCAUGCAGAGAUCCCAAGGCCUAUGUCUGGAGGGUACCAACUCCUCCAGCCUAGACCCCUGGCUUUGUCCAACACCAGCCCUGACCCA,1.31
ACCGCUUAUUCUUUUUGUCUUUUUAACAAACAUAUUAUCCGAAUUUUUUUUCUGCAAGCCACUGAUAGUCUCUGCUAACUAGCUUAAUUGACCUUUUUACAAAGUUUGAU,0.821

# Set 3
# Target: Centromere-binding protein 1, full length, N-terminal tag (CBF1, Saccharomyces cerevisiae, UniProt P17106, residues 1-351)
# Sequence of UniProt P17106 (whole entry, looked up): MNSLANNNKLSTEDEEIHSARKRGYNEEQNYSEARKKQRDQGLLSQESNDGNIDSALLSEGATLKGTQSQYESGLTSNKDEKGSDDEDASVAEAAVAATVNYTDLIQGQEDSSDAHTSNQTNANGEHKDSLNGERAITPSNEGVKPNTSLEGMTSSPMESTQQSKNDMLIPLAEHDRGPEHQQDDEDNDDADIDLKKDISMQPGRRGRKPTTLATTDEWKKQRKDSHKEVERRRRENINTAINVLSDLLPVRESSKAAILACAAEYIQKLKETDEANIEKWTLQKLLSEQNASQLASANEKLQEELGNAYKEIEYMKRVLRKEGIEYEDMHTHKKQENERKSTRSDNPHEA
# Method: protein-binding microarray
# Molecule type: double-stranded DNA, one strand shown
# Medium: in vitro
# Tested at: 0.8 µM
# Setting: whole 60-bp probe, no competitor
# Reading: higher = stronger binding
# Shared flanks, not repeated: … GTCTTGATTCGCTTGACGCTGCTG
Oligonucleotide,fluorescence intensity [a.u.]
CTAAATAACCTCAGTCACCTTGTGCAAGAACTTTTC,531
GAAGATAATAATAATCACGTTTATATCACGTGATAG,22800
CTAGAGTGACATGATATGGTGATGGTGATGAGATTC,539
GAACGTCGTATATTTCTCGTGCCGAGCTTGCGCTAG,545
CTACTTCTGGATTCTCACGGGATTATCTCGCGTTTC,656
GAAGTATATAGTCATAAGGTGACACAGCGTGGGTAG,569
CTAACATATAATCAAAACGTGAGTTTCCTGTGGTTC,651
CTAAAAAATTTTTATCACGTTTCTTTTTCTTGATTC,1910
GAATTTTTTGCACATCACGTATGCTACTTTTGTTAG,677
CTAAATGATAAATAGCACGATATGTAACAATAGTTC,579
CTAGCAAATACAACGCACGATTATATATACATTTTC,536
CTATACTACGTAGGTCATCACTGTTATTGTTTTTTC,532
CTAATAAAGAAGAGAAACGTCACCTAAAAAGTTTTC,480
CTAGCTTATCGCGGTCATGTGACTAATAATTGATTC,16600
CTATCATAATAAAGTGTGATGATGGAGGCAATGTTC,559
GAAAACAATAAACTCAACGTGTACACTTATGCTTAG,552
GAATGTCGGAATCAGCACGCGCAAGAACCAAATTAG,884
CTACGGGTGCAAAACCGGGTGACGGGACACCGCTTC,467
CTAGTGAGCTCATGTGGTGTGGTTGCTTGTCTGTTC,550
CTACCAGAGAACCATCATCATGCCTCTCCTCAATTC,507
CCTAACTACTATAAGCACGAATCATAGCTTCGTACA,522
CTAATTGTCACTTTTCATCACGTGTGTATTTAATTC,9320
GAAGATGAATAAAATCATGTGAGTATAATTTTCTAG,1500
CTAAAAAGAAAAGGTGACATTATGCAGAACATATTC,566
GAATGTTGTGGTGATGTCGTGATACCATAAAGTTAG,902

# Set 4
# Target: RING finger protein unkempt homolog, zinc fingers 1-6, GST-SBP tag (UNK, Homo sapiens, UniProt Q9C0B0, residues 30-357)
# Sequence of UniProt Q9C0B0 (30-357, looked up): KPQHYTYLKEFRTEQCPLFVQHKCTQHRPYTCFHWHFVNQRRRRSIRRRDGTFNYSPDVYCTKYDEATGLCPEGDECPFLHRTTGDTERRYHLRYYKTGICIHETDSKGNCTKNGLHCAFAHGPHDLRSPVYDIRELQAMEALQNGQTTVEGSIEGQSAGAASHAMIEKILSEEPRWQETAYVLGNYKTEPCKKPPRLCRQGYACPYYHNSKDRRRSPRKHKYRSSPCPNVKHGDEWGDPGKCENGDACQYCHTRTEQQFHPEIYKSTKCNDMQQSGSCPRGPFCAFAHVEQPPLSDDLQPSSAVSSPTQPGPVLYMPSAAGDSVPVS
# Method: RNA Bind-n-Seq
# Molecule type: RNA
# Medium: in vitro
# Tested at: not given
# Setting: RNA with constant flanks, human and mouse sites, ends assumed
# Reference: input RNA pool
# Reading: higher = stronger binding
# Shared flanks, not repeated: GGGAGUUCUACAGUCCGACGAUC … CAACAGAGGAUUGAGCAUCA
Oligonucleotide,bound/input enrichment [ratio]
AGGGCCUCCAACAGGCAAAUUCAGGGAGGAUAGGUUUCAGGGAAUAUAAAUUUAUUUAAUAUUAGUGGUCUUUAAGUAUAAACUUGAUGUAAUUGGUUUGGGAGGGGGCAGUGAUGAUGA,8.9
GAUCUUGAGAGUUUGGACAAACUUAUGAAAACUAAAAACAUACCUGAAGCUCACCAAGAUGCAUUUAAAACUGGUUUUGCAGAGGGUUUUCUCAAAGCUCAAGCUCUUACACAGAAGACC,0.151
CUUAGAAUAGGGAAGCUUGCUAUUUUAAAGCUCUUGUAGUGCUUUUCUUUUAAGGGAGAUGUAGUAAAAGGGAAAAUGUAGCUCUUAGUUUACACUUCAAAGAUGUGGGGGUCUUUCAGA,1.24
CUGAGGCUGUGGGGUGAUCAUGGACAAGAAGCUUUGGAAUCUGCUCAUGUUUGCUUAAUAAAUGCAACGGCUACAGGAACUGAAAUUCUUAAAAACUUGGUGCUGCCAGGUAUUGGAUCA,0.189
CCUGCCUCAGCCUCCCAAGUAGCUGGUACUACAGGUGCGUGCCACCACACCUGGCUUAUUUUAGUUAUUUUAGUAGAGAUAGGGUUUCACCAUGUUGGCCAGGCUGGUCUCGGAACUCCU,2.98
AUAAGAAAUUUUCUGUGAAAUAUUCUUUCAUUGUUUAAGCUUUUGUUUUGGUCAUCUUUAUUCAGUUUGCAUGAAGUUGAAAAUUACGGCAUUUUUAAGAUAACUUUUACUUCAUGCCCA,0.203
GUCACCCAGCUGUUGCAGUCUUCGCAUAAGGAAUCCAGCUUCGAUGUCAUUCUGUCGGGUGUAGUCCCAGGAAGCACCUCUCUGCACAGUGCUGAGGUUCUGGCUGAGAUGGCCCGGAUC,0.103
UACAUUUUACACUGUUGGUUUGUAUUUUUGUAUGUUUAUGGUGUCUGCUUGCCUGUGUCUUUUAGUAAAAUAAGACUUUAAAAUUACUUAGCAUGCUAUUUAACAUUUUCUAAAAAUUAU,3.15
CCUCUUCCUACAAAUUUCAGUUUUAAAGGACAAAACCAGCUGAAGUUUGUUGCUGCUUCCUAUGAUAUACGAGGAAACUUCAUCAAAUGGCAACCUUUAGAAGGUGGUGUUUUACAGCUU,0.279
CCUGCCAGGCUGUCGGGCGUCAUGGUGCCGGCGCCCAUCCAAGACCUGGAGGCCCUGCGCGCGCUCACGGCGCUCUUCAAAGAGCAGCGGAACCGAGAAACAGCACCCAGGACUAUCUUC,0.0852
GAUAAUCCUGUUUAAACUGGUGCUGUGUACAUGGGAUGUACUGAUACAGAACUUCUCUUCUAGGGAAAGCUAAUCAUUUGUCAAUGAUUUAAAAAUUAUUGUCACUACUGUUGAUUACUG,1.19
